Published values of several laboratories.
Numbered parts are unrelated; each lists some results of a single study.

Series 1 — method: universal PBM; form: double-stranded DNA, one strand shown; matrix: in vitro; concentration: not given; direction: higher = stronger binding; quantity: E-score
Target: Sal-like protein 4, full length isoform B (SALL4, Homo sapiens, UniProt Q9UJQ4-2, residues 1-616)
Notes: 8-mer, flanks averaged, mean of replicates
ACAATCTC: 0.0577
ATTCTGGA: 0.222
ATTGTCCA: 0.163
AACTAAAG: 0.223
CGTACCCC: -0.221
AGGGTCCC: -0.29
GCGACAAC: -0.0369
ACCACATG: 0.15
ACGGTACT: -0.0435
CGGGCGCC: -0.279
AAAAATCG: 0.19
ACCTCGGG: -0.283
CGTCAGCC: -0.269
CATCGGTA: 0.0685
CGATCAAA: -0.0519
GACCTTGC: -0.244
ACATGGCT: -0.00793
ATCTCAGG: -0.149
AATTCTAC: 0.129
CGTTTCGC: -0.229
CAATTCAA: 0.156
CTGTCATA: 0.265
CTAAGACC: -0.191
GCGGGATA: -0.1
GAGCATAA: 0.165

Series 2 — method: RNA Bind-n-Seq; form: RNA; matrix: in vitro; concentration: not given; baseline: input RNA pool; direction: higher = stronger binding; quantity: bound/input enrichment
Target: RING finger protein unkempt homolog, zinc fingers 1-6, GST-SBP tag (UNK, Homo sapiens, UniProt Q9C0B0, residues 30-357)
Chain of UniProt Q9C0B0 (30-357, looked up): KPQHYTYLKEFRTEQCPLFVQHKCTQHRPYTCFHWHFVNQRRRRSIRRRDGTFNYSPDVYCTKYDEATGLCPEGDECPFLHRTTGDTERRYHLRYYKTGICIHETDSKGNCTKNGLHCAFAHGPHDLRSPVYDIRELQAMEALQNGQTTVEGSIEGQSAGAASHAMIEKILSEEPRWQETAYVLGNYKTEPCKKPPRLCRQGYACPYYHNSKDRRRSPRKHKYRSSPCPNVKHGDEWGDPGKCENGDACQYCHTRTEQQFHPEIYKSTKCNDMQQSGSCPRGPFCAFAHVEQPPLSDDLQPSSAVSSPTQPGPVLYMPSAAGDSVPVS
Notes: RNA with constant flanks, human-mouse chimeric sites, ends assumed
Constant ends, left off below: GGGAGUUCUACAGUCCGACGAUC … CAACAGAGGAUUGAGCAUCA
AAAGUGAUGACUAUGUUUGUCCAACGACAGGUAUUUUCGGAGAGCAAAGAUGAGAUUGCUUUAGUCCUGUUUGGUACAGAUGGCACUGAUAAUGCCCUUGCUGGCAAGGACCAGUAUCAG: 0.126 ratio
UUCAAAGAAAAGGGCAGCUGUGUCAUUUCAUAAGUAACUCUGGGGGAUAAGUGGAAGGUUCUUUUGUUUUUAGUUUUCCCAAAUGAAGCCAAAGUGUGUGUUGAAGAACUGAGAAAAAAU: 0.198 ratio
UCUUAACGUCCAUUUAAAACUUAUUUUUAGCACUUAGUAAAUAUUGUUAGUCUUAGACAAUAGCUCACAUUUUUUGAGAAGCAUGCCCUCCCUGUCCAUUUGUCUUAUAACAUGACCCAG: 187 ratio
UACUCAACUUUCUUGCCACAUUUUGAAUUCCAAGAUGUUAUUCCUCCAGAUGACUUCCUAACGAGUGAUGAAGAGCAAGAUUUGGUUUUAUUUGGAACUAUGAGAGGACAAGUUGUUGGA: 0.155 ratio
UUGCUACUGACUCCCUGGGUCAAGUUCCUGUGGGAAUCAUACAGGCAGUGUUUGGACCUUCUUAGAAACAAUUCUAGAGUAGAGCGCCUUUACCAUGAUAUCGCCCAGCAAGCUUUCAAA: 0.277 ratio
CAGCUGCGAGGCCGCGGUUUCCCCCUGGGUGUGCUGAGCAGCAGCCAUGGGCAUCAAAUUUUUAGAAGUUAUCAAACCAUUCUGUGCAGUUCUACCAGAAAUUCAGAAACCGGAAAGGAA: 0.885 ratio
UAAGUUAUUUUGUACAGCUUUGUAAAUUCUUAACAUUUUUAUAUUGCCAUGUUUAUUUUGUUUGGGUAAUUUGGUUCAUACAUGGCCUAGCUAAGGUAAUGAACAUCUUUUUCAGUAAUU: 1.29 ratio
CAGCUGCAGACAGAAAAGGAUGAGAAGGAACUUUAUAAGGUACAUUUGAAGAAUACAGAAAUAGAAAAUACGAAGCUUGUGUCAGAGGUCCAGACUUUAAAGAAUUUAGAUGGAAACAAA: 5.47 ratio

Series 3 — method: protein binding microarray; form: double-stranded DNA, one strand shown; matrix: in vitro; concentration: not given; baseline: not given; direction: higher = stronger binding; quantity: E-score
Target: Histone acetyltransferase KAT6A, winged helix 2, GST fusion (KAT6A, Homo sapiens, UniProt Q92794, residues 85-181)
Notes: 8-mer, flanks averaged, mean of 2 arrays, mostly near background
Residues (chain): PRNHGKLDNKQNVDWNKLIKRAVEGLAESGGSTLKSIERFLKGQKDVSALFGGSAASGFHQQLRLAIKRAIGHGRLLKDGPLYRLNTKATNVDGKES
ACTCCAAA: -0.00948
CACTGATA: -0.0591
CGAAGTCA: -0.111
ACCCGTAA: -0.165
CCACTTTC: -0.118
AAGTTCCC: -0.143
AGAATGCA: 0.0862
ATCATTAG: -0.0334
ACATGCTA: -0.135
ACCACAAG: 0.0192
GTAGATGA: -0.027
CACACGTA: -0.322
CGACTCCA: 0.00786
ATACAGTC: -0.302
AAATTGAT: 0.0874
TAATTGGA: 0.0814
CAATTCAA: -0.00814
GCAGAGAA: 0.103
AGCACGTG: -0.0137
CAACACAA: 0.0907
GACACCTA: -0.162
GGCGCACC: 0.212
TATCAACA: -0.0381
GCACTTCA: -0.00352
ACTCTCTA: -0.102

Series 4 — method: RNA Bind-n-Seq; form: RNA; matrix: in vitro; concentration: 365 nM; baseline: no-protein control; direction: higher = stronger binding; quantity: RBNS enrichment (R)
Target: RNA binding protein fox-1 homolog 2, RRM domain, GST-SBP tag (RBFOX2, Homo sapiens, UniProt O43251-10, residues 100-194)
Notes: natural RNA segment, single round, ends assumed
Constant ends, left off below: GGGAGUUCUACAGUCCGACGAUC … UGGAAUUCUCGGGUGCCAA
Target sequence (chain): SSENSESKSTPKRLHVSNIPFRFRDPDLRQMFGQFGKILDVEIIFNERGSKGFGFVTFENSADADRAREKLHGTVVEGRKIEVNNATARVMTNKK
GUUCCAUUUCACCUCAGAUGGCAGCUUGCCUGGCAGUGGACUUAGAGUGUUCUAGUCUGAUGUAUGUGGGGUUUCCUGCCCUGUUGGACCAAAGUUUCCAUGGUCCUAUG: 0.297
AAAUAUGACUGUUUUAGGGACUAGACCAUGUGCUUUUUUAACACUUAUAUAUAUAAUGGUCUAUUUGAAGAGCUCACUUCAACCUAACAGCUAGAUGUCUUUACAAACCU: 0.436
GGCCCCCAUGAAUGUCCUCGGAAGGGGGUGGCUCCUGGUAGCAUCCUUUUCCUUCACCAUCUAUGGGAUAUUAGGGGCAGAAUCUGCCACUUCUUGCCCAGGAGUGUGCA: 1.09
GUUCACUGACUAGGAAAAGCACUACAUUUUAAAUUCAGCAUUAGUGCAUUGGGAAGGAUCUUUACUGCUUUGUGCUUGGCAUGUCAUUAUUUUCCAUUUGACAUUAGGGC: 1.4
AUGAAAAAGCCCAUCUCCUGUGUCCCCAUUGCUCCUUCCCCUUAGCCUCGACAUUUCAAGUUGCGGUGUGUGACGGAGGUGGCUGCCGAACGAGAAGAGAUGCCACAGUG: 0.34
UAUUGCCCUUAAGAGCUUUAAAGAUAGUUUUUUUUACAUGCCUUAUGCAUACAUUCCACUACUGACACUCUCAAGGUAAUAUUAAACAUGAUCUAGGUACUAAGAUAUUC: 0.393
GACUAGCCAGAGGCCUGAUGGUCCCAGGUGGCUCUGGAUAUACUUUGGAUAUGGAUUUAAAUGGUCUCUAAGAGCCGGGGGUAGGGGGCAGGAAAAGUGGGUUGUCUUUG: 0.444
CAGGGAGGCCACGUCCCACCCCACCUCUUGUUUCUGGGUCCCUGCUCCCCUUUGGGGGUGUGUGUGUGUGUUUUAAUUUUCUUUAUGGAAAAAUUGACAAAAAAAAAAUA: 0.55

A few entries again (series 1):
CATCGGTA: 0.0685
CGATCAAA: -0.0519
GACCTTGC: -0.244
ACATGGCT: -0.00793
